{"data": "Published values pooled from the literature", "note": "Each line is one published result; not all experiments were run side by side."}
{"Structure (SMILES)": "CN1CCCNC(=O)c2cccc(c2)C(=O)NCCCN(C)CCCNc2cccc3c2C(=O)c2cccc(c2C3=O)NCCC1", "target or system": "SAS", "test": "RNA-Seq, item: COPS6 mRNA", "conditions": "5 µM, 24 h", "how to read": "relative to: untreated cells", "quantity": "log2 fold change", "result": -2.19}
{"Structure (SMILES)": "CNS(=O)(=O)Nc1nccc(Cc2c(C)c3ccc(Oc4ncccc4F)cc3oc2=O)c1F", "target or system": "NCI-H69", "test": "cell viability", "conditions": "7 days", "quantity": "IC50", "result": "> 1 µM"}
{"Structure (SMILES)": "CCN(C(=O)c1cc(F)ccc1Oc1nncnc1N1CCC2(C1)CN([C@H](CCCN(C)CCOC)C(C)C)C2)C(C)C", "target or system": "IMR-90", "test": "cell growth or viability", "conditions": "72 h", "quantity": "GI50", "result": "> 10 µM"}
{"Structure (SMILES)": "Nc1ncc(-c2cc(-c3cnn(CC(F)(F)F)c3)ncc2F)nc1C(=O)NC1CNCC(F)C1 (centres unmarked)", "target or system": "BMX", "test": "KINOMEscan", "conditions": "1 µM", "how to read": "relative to: DMSO control", "quantity": "remaining binding", "result": "91%"}
{"Structure (SMILES)": "COC1CN([C@H]2CC[C@H]([C@@]3(C)Oc4c(Cl)cc(C(=O)NCc5c(SC)cc(C)[nH]c5=O)c(C)c4O3)CC2)C1", "test": "RNA-seq, item: SMARCD3 mouse homolog", "test system": "mouse, HT-1376 xenograft, whole blood", "conditions": "dose not given", "how to read": "relative to: vehicle", "quantity": "log2 fold change", "result": 0.515}
{"Structure (SMILES)": "Cc1ncsc1-c1ccc(C(C)NC(=O)C2CC(O)CN2C(=O)C(NC(=O)CCCCCCCCCCN2CCCC(Nc3ncc(Cl)c(Nc4ccccc4S(=O)(=O)C(C)C)n3)C2)C(C)(C)C)cc1 (centres unmarked)", "target or system": "22Rv1", "test": "RNA-seq, item: PIP5K1C mRNA", "conditions": "concentration not given", "how to read": "relative to: DMSO", "quantity": "log2 fold change", "result": -1.03}
{"Structure (SMILES)": "Cn1ncc2cc(-c3cncc(Cl)c3N3CCC4(CCNC4=O)CC3)ccc21", "target or system": "LS174T", "test": "gene expression, microarray, item: CA9 mRNA", "conditions": "concentration not given, 24 h", "how to read": "relative to: untreated cells", "quantity": "log2 fold change", "result": 3.39}
{"Structure (SMILES)": "C=CC(=O)Nc1cccc(Cn2ncc3cnc(Nc4cnn(CCOC)c4)nc32)c1", "target or system": "CDKL3 human", "test": "binding, KINOMEscan", "conditions": "100 nM", "how to read": "lower = stronger binding", "quantity": "percent of control", "result": "77%"}
{"note": "Repeated from above:"}
{"Structure (SMILES)": "C=CC(=O)Nc1cccc(Cn2ncc3cnc(Nc4cnn(CCOC)c4)nc32)c1", "target or system": "CDKL3 human", "test": "binding, KINOMEscan", "conditions": "100 nM", "how to read": "lower = stronger binding", "quantity": "percent of control", "result": "77%"}
